# Measurements pooled from the literature.
# Every numbered part comes from another study and shows a few of its results, in no order. Positions count from the first letter of the parent shown.

# Sample 1 — target: CCNE1, cyclin fold, Cln2 fusion (human); method: yeast growth competition, sequencing; medium: yeast; setting: strong parent motif; baseline: not given; reading: higher = stronger binding
# Starting sequence: CDKN1B docking peptide (human); PSACRNLFGPVDH
Variant,normalised enrichment score
A3R,0.484
H13P,3.12
P10L,2.48
P10F,2.09
S2C,1.53
A3M,1.32
V11A,2.67
P1F,3.95
R5Y,0.922
D12H,2.96
V11P,2.95
G9K,1.73
C4T,0.341
F8H,0.375
L7H,0.0118
P1T,3.62
F8A,0.291
R5D,-0.0396
S2N,2.97
P1L,2.1
F8C,-0.365
P10R,3.5
L7E,0.134
N6P,0.0877
D12M,2.97

# Sample 2 — method: RNA Bind-n-Seq; form: RNA; medium: in vitro; concentration: 365 nM; baseline: no-protein control; reading: higher = stronger binding
# Target: RNA binding protein fox-1 homolog 2, RRM domain, GST-SBP tag (RBFOX2, Homo sapiens, UniProt O43251-10, residues 100-194)
# Setting: natural RNA segment, single round, ends assumed
# Target sequence (chain): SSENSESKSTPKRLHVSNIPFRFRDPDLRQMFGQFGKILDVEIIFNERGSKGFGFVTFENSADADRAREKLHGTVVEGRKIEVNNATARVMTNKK
Strand,RBNS enrichment (R)
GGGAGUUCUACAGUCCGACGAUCGGCAUCCCAAGUGGGGUCCUCACCCAUCCCAGCUACUGCAGCUCUGUAUUACUUUGUCAUUUCCUGUUGUCUCACUCCUGAGGGCUCCUGCAGUAACUCUGUACUUCUCUUGGAAUUCUCGGGUGCCAA,0.526
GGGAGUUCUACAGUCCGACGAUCUGCCUGAUUUAGCCCUGUGCCUAACAGUUUAAAUCUUAAUGCUAAUGUUAAUUGCUUCCCAGUUGGUUGACCUUAUAAGAAAACACUGUGUGGUAUUUUAAUGUGGUAAAUGGAAUUCUCGGGUGCCAA,0.299
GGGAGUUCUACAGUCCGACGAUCAUUGUUACAAGUUUAUAAUGUAUUUUUCUAUCUUGUUUUAUAUGUAUGUUAUAUAACAUUCAAAAAGAAUUUUUUUCUUGAUUGAGAAAAGGAUACAAAAUGCAAAAUCCUGGAAUUCUCGGGUGCCAA,1.09
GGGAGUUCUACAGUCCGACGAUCAACAAGGACAAAUUCCUGCUACUAAGACAUGCUGUUAACUCAGUCUGACUGGAAGAAUUUAGGACCACUGCAUCCUGUCUUAAUCCAAGGUACUGGAAAACCUUCCACAUUGGAAUUCUCGGGUGCCAA,0.435
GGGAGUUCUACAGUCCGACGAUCCUGGGAUAAAAGGCAGAGUUAGUUUCUCUCAUAGCAUAUAUUGGCAGAAAUGGUUCUGCAAGAUGCUCAAAGGCAUGGAAGAAACAUAUUACUAUUUAUUGUUAAUAUCAUGGAAUUCUCGGGUGCCAA,1.13
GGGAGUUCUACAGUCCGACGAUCGAGAAAGUUUGCUGACUUUUGUAACAUUGGCUGCCUUUGUGCAGAAGAAAAAAACAUGGUAGGGAAGGAGCUCUGCUGCCUCUUUGCCCUACAACCAUGGCAUUGCAAAAUGGAAUUCUCGGGUGCCAA,0.432
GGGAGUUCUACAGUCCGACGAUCACUCAGGCAAUAAGCGAUUUUAGCUUUAUUUAAAGUCUUCUGUCCAGCUUUAAGCACUUUGUAAGACAUGGCUGAAAGUAGCUUUUCUAUCAGAAUUGCAGAUAGUCAUGUGGAAUUCUCGGGUGCCAA,0.288
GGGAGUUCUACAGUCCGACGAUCGCAGAUUUUUCUGAAAUGAGAUGUUUAGAUGAGCAUACUACUAAAGCAGAGUGGAAAAAUCUGUCUUUAUGGUAUGUUCUAGGUGUAUUGUGAUUUACUGUUAGAUUGCCUGGAAUUCUCGGGUGCCAA,0.506
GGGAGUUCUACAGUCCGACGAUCUGGGAAGAGGGCUCUGUAAGCCAGAACCUUACUAAAGUAGAGGGCACAAUCAGUGUGAAUAAAUUCACUUCAGAAUCUCAAGUCAAGGCCAGGCACGGCGGCUCACGCCUUGGAAUUCUCGGGUGCCAA,0.79
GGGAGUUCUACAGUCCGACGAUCGGGCUAGUCUUUCCUGAAUUCUAAUUUUGUUGCUCUGGAAGUGUUAACUGUGAUCCAGUACCUGUAAUACAGGAACACACAAUGUAUAUGGGGAAGCCCUUUGGCUUCAGUGGAAUUCUCGGGUGCCAA,0.528
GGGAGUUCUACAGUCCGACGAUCGUUCCUGAUUUCUGUAUACAUGUAGCUUUGCCAGAUAUGUACUUAGUAAUAUAAACUGUAUUAAUAAAAUCCAUUUACUGUGUAAUACACGAGUUUAAAAAUUAAGAGCGUGGAAUUCUCGGGUGCCAA,0.325
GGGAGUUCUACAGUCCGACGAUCGUGACUGCAGCGCCAAGCGGCAUCCACCAAGCAUCAAGUUGGAGAAAAGGGAACCCAAGCAGUAGAGAGCGAUAUUGGAGUCUUUUGUUCAUUCAAAUCUUGGAUUUUUUUGGAAUUCUCGGGUGCCAA,0.507

# Sample 3 — target: FOSL2, bZIP domain (human); method: DHFR protein complementation; medium: yeast; baseline: wild-type JUN-FOS pair; reading: higher = stronger binding
# Setting: single substitutions, most at no-binding floor
# Starting sequence: JUN, bZIP domain (human); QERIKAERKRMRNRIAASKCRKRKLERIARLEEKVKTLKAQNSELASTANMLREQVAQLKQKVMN; partner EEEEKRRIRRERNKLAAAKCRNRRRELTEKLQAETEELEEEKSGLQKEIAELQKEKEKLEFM
Variant,binding fitness [natural log]
R53M,-0.422
E54L,-0.0688
V35H,-0.378
L38I,-0.318
A49C,-0.013
A57L,-0.108
A57P,-1.34
A57Q,0.0105
A29N,-0.0185
V35C,-0.149
E32I,-0.2
E33I,-0.161
E54Y,-0.214
A57V,0.0218
A40V,0.0503
E44L,-0.0201
E32F,-0.26

# Sample 4 — method: DHFR PCA, deep sequencing; medium: yeast; with: (+)-ABA 4.8 µM; baseline: wild-type fitted maximum; reading: higher = stronger binding
# Target: ABI1, truncated, D143A, DHFR fusion (Arabidopsis thaliana)
# Setting: methotrexate growth selection, single substitutions
# Starting sequence: PYL1, truncated, DHFR fusion (Arabidopsis thaliana); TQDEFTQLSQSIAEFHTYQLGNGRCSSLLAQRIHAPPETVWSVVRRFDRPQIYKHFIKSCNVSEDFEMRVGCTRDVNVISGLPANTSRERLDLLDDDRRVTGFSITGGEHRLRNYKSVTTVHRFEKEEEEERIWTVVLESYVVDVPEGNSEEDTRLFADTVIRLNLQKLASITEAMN
Variant,relative binding score [%]
P36V,20.8
F66Q,62.4
L166P,14.1
V100L,29.2
E14S,34.4
K126T,90.5
R90H,13
V76E,5.17
E67W,39.6
S26Q,46.9
E174G,10.6
R32L,64.3
Y18S,32.5
V142H,22.8
E67F,44.6
E129D,90.3

# Sample 5 — method: universal PBM; form: double-stranded DNA, one strand shown; medium: in vitro; concentration: 600 nM; reading: higher = stronger binding
# Target: Sal-like protein 4, full length isoform A (SALL4, Homo sapiens, UniProt Q9UJQ4, residues 1-1053)
# Sequence of UniProt Q9UJQ4 (whole entry, looked up): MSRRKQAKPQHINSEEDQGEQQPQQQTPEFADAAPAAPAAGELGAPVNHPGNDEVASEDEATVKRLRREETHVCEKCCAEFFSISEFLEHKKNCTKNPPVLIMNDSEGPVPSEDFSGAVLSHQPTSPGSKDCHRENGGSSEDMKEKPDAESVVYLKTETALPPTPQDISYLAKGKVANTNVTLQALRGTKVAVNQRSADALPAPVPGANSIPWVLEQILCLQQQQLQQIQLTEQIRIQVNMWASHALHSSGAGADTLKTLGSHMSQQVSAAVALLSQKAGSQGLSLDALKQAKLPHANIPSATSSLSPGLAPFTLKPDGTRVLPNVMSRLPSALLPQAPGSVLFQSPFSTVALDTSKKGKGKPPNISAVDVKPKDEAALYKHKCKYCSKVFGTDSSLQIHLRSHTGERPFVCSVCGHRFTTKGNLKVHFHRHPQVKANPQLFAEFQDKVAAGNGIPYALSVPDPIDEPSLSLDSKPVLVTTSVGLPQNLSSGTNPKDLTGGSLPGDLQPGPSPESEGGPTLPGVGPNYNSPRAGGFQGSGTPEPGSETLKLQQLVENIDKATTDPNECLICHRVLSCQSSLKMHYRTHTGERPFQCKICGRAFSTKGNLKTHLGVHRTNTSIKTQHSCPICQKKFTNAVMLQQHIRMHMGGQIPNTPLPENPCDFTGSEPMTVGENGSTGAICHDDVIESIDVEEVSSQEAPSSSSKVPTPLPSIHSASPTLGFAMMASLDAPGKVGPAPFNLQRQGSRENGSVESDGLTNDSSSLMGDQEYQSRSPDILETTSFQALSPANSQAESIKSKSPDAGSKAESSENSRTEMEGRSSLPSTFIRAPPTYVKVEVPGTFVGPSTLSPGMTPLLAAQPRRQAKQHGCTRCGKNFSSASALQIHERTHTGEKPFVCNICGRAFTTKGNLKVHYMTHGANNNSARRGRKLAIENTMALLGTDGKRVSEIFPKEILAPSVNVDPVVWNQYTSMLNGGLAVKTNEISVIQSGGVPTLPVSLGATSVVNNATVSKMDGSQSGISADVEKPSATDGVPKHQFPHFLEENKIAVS
# Setting: 8-mer, flanks averaged, mean of replicates
Strand,E-score
CTGGGATC,-0.292
ATCTCATA,0.23
CCGTACCC,-0.272
GAAGGGTA,-0.00817
ACGTACGA,0.0157
ACAGGTAG,-0.0467
ACGTCGGC,-0.277
ATCCGGTC,-0.298
CGTGCGGC,-0.263
TGATGCAA,0.102
ACTCACGA,-0.073
GTTCCGAA,0.00431
CCGTCTGC,-0.372
ATAGAACA,0.191
TACACCTA,0.158
CCAGGCGA,-0.366
AAACCGGA,-0.0644
CGCTGACA,-0.128
AGTAAGCA,0.134
TCGAGAGA,-0.115
AAGTTTGG,0.142
AAGTCGGG,-0.0979
AACCACTT,0.0185
AGTCTTAA,0.0965
